Results gathered from unrelated publications.
Each line is one published result; not all experiments were run side by side. ± marks the error that the study gave.

SMILES | assay | system | setting | kinetic solubility
COc1cc2[nH]c(C)c(-c3ccc(OC(C)C)cc3)c(=O)c2cc1Cl | – | – | pH 7.4 | < 2 µM
CCCCCCCCC(=O)c1cc(O)c(O)c(O)c1 | – | aqueous buffer | 90 min, pH 7.4, 25 °C, 0.1% DMSO | ≥ 100 µM
CC/C=C\C/C=C\C/C=C\C/C=C\C/C=C\C/C=C\CCC(=O)O.Cc1cc(/C=C/C#N)cc(C)c1Nc1ccnc(Nc2ccc(C#N)cc2)n1 | – | Labrasol ALF | – | ~150000 µg/mL
CS(=O)(=O)c1ccc(C(=O)N2CCCCC2)cc1 | – | PBS | 2 h, pH 7.4, 25 °C | 305 µM
NS(=O)(=O)c1nnc(NC(=O)C2CCCC3(CCCCC3)C2)s1 (centres unmarked) | – | PBS | pH 7.4 | 88.5 µM
c1ccc(OC2CCN(c3nc(-c4ccccn4)nc4ccccc34)C2)cc1 (centres unmarked) | – | Japanese Pharmacopoeia disintegration test solution 2 | pH 6.8 | 8 µg/mL
O=[N+]([O-])c1cc(Cc2ccccc2)cc(/C=N/c2ccc(N3CCOCC3)cc2)c1O | – | PBS | 24 h, pH 7.4, 21 °C, 2.0% DMSO | 78.4 µM
CCOC(=O)[C@H](CCSC)NC(=O)c1ccc(C2CC2)c(Cc2ccc(F)cc2)n1 | – | aqueous buffer with DMSO | – | < 0.1 µg/mL
Fc1ccccc1-c1nc(N2CCC(c3ccccn3)C2)c2ccccc2n1 (centres unmarked) | – | Japanese Pharmacopoeia disintegration test solution 2 | pH 6.8 | 5 µg/mL
O=C(Nc1cncc(-c2nc3ccccc3o2)c1)c1cc([N+](=O)[O-])c(F)cc1Cl | – | phosphate buffer | pH 7.4 | < 1.6 µM
CCCCn1c(NS(=O)(=O)c2ccc(C)cc2)c(S(=O)(=O)c2ccccc2)c2nc3ccccc3nc21 | – | PBS | 24 h, pH 7.4, 21 °C, 2.0% DMSO | 11.3 µM
CCn1ncc2nc(-c3ccccn3)nc(N3CCC(c4ccccn4)C3)c21 (centres unmarked) | – | Japanese Pharmacopoeia disintegration test solution 2 | pH 6.8 | 89 µg/mL
CCN(CC)CCNC(=O)c1cc(S(C)(=O)=O)ccc1OC | – | PBS | 2 h, pH 7.4, 25 °C | 397 µM
Cc1ccn2c(NC3CCCC3)c(-c3ccc(N(C)C)cc3)nc2c1 | shake flask HPLC-UV | sodium phosphate buffer | 24 h, pH 7.4, 2% DMSO | 0.33 µg/mL
CN1CCN(c2cc(Cl)c(C(=O)Nc3cncc(-c4nc5ccccc5s4)c3)cc2[N+](=O)[O-])CC1 | – | phosphate buffer | pH 7.4 | < 1.6 µM
c1ccc(CN2CCN(c3nc(-c4ccccn4)nc4ccccc34)CC2)cc1 | – | Japanese Pharmacopoeia disintegration test solution 2 | pH 6.8 | 85 µg/mL
Clc1ccc(COc2cncc(-c3cnn(C4CCNCC4)c3)c2)c(Cl)c1 | – | phosphate buffer | pH 7.4, first insoluble concentration | 60 µM
O=C(O)CCc1nc(-c2ccccc2)c(-c2ccccc2)o1 | – | aqueous buffer | 90 min, pH 7.4, 25 °C, 0.1% DMSO | ≥ 100 µM
Cc1ccc(C(=O)O)cc1-c1ccc(/C=C2\SC(=O)N(CC(=O)Nc3ccccc3)C2=O)o1 | – | PBS | 24 h, pH 7.4, 21 °C, 2.0% DMSO | 7.2 µM
COc1cc2[nH]c(C)c(-c3ccc(N4CCN(C)CC4)nc3)c(=O)c2cc1Cl | – | – | pH 7.4 | ≥ 20 µM
Cc1ccc(-n2cccc2/C=C2\C(=N)N3N=C(c4ccco4)SC3=NC2=O)cc1 | – | PBS | 24 h, pH 7.4, 21 °C, 2.0% DMSO | 8.7 µM
Cc1ccc(-c2nc3ccccc3s2)cc1NC(=O)c1cc([N+](=O)[O-])c(NCCN(C)C)cc1Cl | – | phosphate buffer | pH 7.4 | < 1.6 µM
COc1cc2[nH]c(C)c(-c3cc4ccccc4o3)c(=O)c2cc1Cl | – | – | pH 7.4 | < 2 µM
COc1ccn2c(Nc3ccc(F)cn3)c(-c3ccccn3)nc2c1 | shake flask HPLC-UV | sodium phosphate buffer | 24 h, pH 7.4, 2% DMSO | 76.3 µg/mL
COc1cc2[nH]c(C)c(-c3cccc4c3oc3ccccc34)c(=O)c2cc1Cl | – | – | pH 7.4 | < 2 µM

SMILES | assay | system | setting | kinetic solubility
Oc1cccc(-c2nc(N3CCC(c4ccccn4)C3)c3ccccc3n2)c1 (centres unmarked) | – | Japanese Pharmacopoeia disintegration test solution 2 | pH 6.8 | 1 µg/mL
COc1cccc2c(Nc3ccc4[nH]c(C(=O)N/N=C/c5ccc(SC)cc5)cc4c3)cc(C)nc12 | – | aqueous buffer | 90 min, pH 7.4, 25 °C, 0.1% DMSO | 6 ± 1.4 µM
COc1cc2[nH]c(C)c(-c3ccc4c(c3)OCCO4)c(=O)c2cc1Cl | – | – | pH 7.4 | < 2 µM
Cc1ccn2c(Nc3ccc(F)cc3)c(-c3ccccn3)nc2c1 | shake flask HPLC-UV | sodium phosphate buffer | 24 h, pH 7.4, 2% DMSO | 0.38 µg/mL
c1ccc(C2CCN(c3nc(-c4ccccn4)nc4ccccc34)C2)cc1 (centres unmarked) | – | Japanese Pharmacopoeia disintegration test solution 2 | pH 6.8 | 1 µg/mL
Cn1nc2c(=O)n(C3CC3)ccc2c1[C@](O)(c1cnc(C(F)(F)F)c(Cl)c1)C1CC1 | nephelometry | phosphate buffer | 30 min, pH 6.5, 1% DMSO | 12.5 to 25 µM
COc1cc2[nH]c(C)c(-c3ccc(C(C)(C)C)cc3)c(=O)c2cc1Cl | – | – | pH 7.4 | < 2 µM
COc1ccc(C(=O)N2CCCCC2)cc1 | – | PBS | 2 h, pH 7.4, 25 °C, 2% DMSO | 343 µM
c1ccc(-c2nc(N3CCCC3)c3ccccc3n2)nc1 | – | Japanese Pharmacopoeia disintegration test solution 2 | pH 6.8 | 79 µg/mL
Cc1[nH]c(C)c(S(=O)(=O)Nc2ccc(C(F)(F)F)c(Cl)c2)c1C(=O)N(C)C | – | – | – | > 100 µM
O=C(Nc1cnc(Cl)c(Cl)c1)c1cc([N+](=O)[O-])c(F)cc1F | – | phosphate buffer | pH 7.4 | < 0.3 µM
NC1CCc2nc(-c3cccnc3)nc(Nc3cccc(F)c3)c2C1 (centres unmarked) | – | PBS with 2.5% DMSO | 24 h, pH 7.4 | 240 ± 13 µM
Cc1ccc(-c2nc3ccccc3s2)cc1NC(=O)c1ccc(N2CCNCC2)c([N+](=O)[O-])c1 | – | phosphate buffer | pH 7.4 | < 1.6 µM
COc1cc2[nH]c(C)c(-c3ccccc3C)c(=O)c2cc1Cl | – | – | pH 7.4 | 6 to 12 µM
O=C(Nc1cccc(Cl)c1)c1cc([N+](=O)[O-])c(F)cc1F | – | phosphate buffer | pH 7.4 | < 0.3 µM
FC(F)(F)c1ccccc1-c1nc(N2CCC(c3ccccn3)C2)c2ccccc2n1 (centres unmarked) | – | Japanese Pharmacopoeia disintegration test solution 2 | pH 6.8 | 2 µg/mL
O=C(Nc1cccc(-c2nc3ccccc3o2)c1)c1cc([N+](=O)[O-])c(F)cc1F | – | phosphate buffer | pH 7.4 | < 1.6 µM
O=C(Nc1cnc2ccccc2c1)c1cc2[nH]ccc2cc1Cl | – | aqueous buffer | 90 min, pH 7.4, 25 °C, 0.1% DMSO | 10.1 ± 1.9 µM
COc1cc2[nH]c(C)c(-c3c(C)cc(C)cc3C)c(=O)c2cc1Cl | – | – | pH 7.4 | 2 to 6 µM
CCCCCCCC(=O)c1cc(OC)c(OC)c(OC)c1CC(=O)OCC | – | aqueous buffer | 90 min, pH 7.4, 25 °C, 0.1% DMSO | 14.9 ± 2.6 µM
O=C(N1CCCCC1)C12CC(c3ccccc3)(C1)C2 | – | PBS with DMSO | 2 h, pH 7.4, 25 °C | 272 µM
CCN1CCN(c2cc(N3CCN(CC)CC3)nc(NCCNc3ccnc4cc(Cl)ccc34)n2)CC1 | – | aqueous buffer | 90 min, pH 7.4, 25 °C, 0.1% DMSO | 94.4 ± 1.4 µM
COc1cnc(NS(=O)(=O)c2ccc(N)cc2)nc1 | – | PBS | 2 h, pH 7.4, 25 °C | 362 µM
CC[C@H](C)C(=O)O[C@H]1C[C@H](O)C=C2C=C[C@H](C)[C@H](CC[C@@H](O)C[C@@H](O)CC(=O)O)[C@H]21 | – | aqueous buffer | 90 min, pH 7.4, 25 °C, 0.1% DMSO | ≥ 100 µM
O=C(Nc1ccc2c(c1)B(O)OC2)Nc1ccc(F)c(C(F)(F)F)c1 | nephelometry | aqueous buffer | – | < 1.6 µg/mL

Some of these lines once more:
SMILES | assay | system | setting | kinetic solubility
COc1cc2[nH]c(C)c(-c3ccc4c(c3)OCCO4)c(=O)c2cc1Cl | – | – | pH 7.4 | < 2 µM
Cc1ccn2c(Nc3ccc(F)cc3)c(-c3ccccn3)nc2c1 | shake flask HPLC-UV | sodium phosphate buffer | 24 h, pH 7.4, 2% DMSO | 0.38 µg/mL
c1ccc(C2CCN(c3nc(-c4ccccn4)nc4ccccc34)C2)cc1 (centres unmarked) | – | Japanese Pharmacopoeia disintegration test solution 2 | pH 6.8 | 1 µg/mL
